Assay results gathered from unrelated publications.
Compare with care: the assays were run in different laboratories. ± gives the spread as reported.

Structure (SMILES) = CCN(CC)c1ccc2c(c1)O[B-]1(c3ccccc3)OC(=O)C(c3ccccc3)=N[N+]1=C2 (stereo not drawn); test system = toluene; measurement = fluorescence emission maximum; value = 509 nm
Structure (SMILES) = CC(C)C[C@@H](NC(=O)[C@H](NC(=O)[C@H]1CCCN1)[C@H](C)O)C(=O)N[C@H](Cc1c[nH]cn1)C(=O)N[C@@H](C(=O)N[C@H](Cc1c[nH]cn1)C(=O)N[C@H](CC(N)=O)C(=O)N[C@H](CCCNC(=N)N)C(=O)N[C@H](CCCNC(=N)N)C(=O)N[C@H](CCCNC(=N)N)C(=O)N[C@H](CCCNC(=N)N)C(=O)N[C@H](CCCNC(=N)N)C(N)=O)[C@H](C)O; test system = Beagle dog, blood; setting = oral, 3 mg/kg daily, 3 months; measurement = cholesterol; value = 5.5 mmol/L
Structure (SMILES) = COc1cccc(OC)c1-c1cc(C(=O)NC2(C(=O)O)C3CC4CC(C3)CC2C4)nn1-c1ccc(C(=O)NCCNC(=O)[C@H](CCCCNC(=O)[C@H](CC(C)C)NC(=O)C2OC2C(=O)O)NC(=O)CN2CCN(CC(=O)[O-])CCN(CC(=O)[O-])CCN(CC(=O)[O-])CC2)cc1C(C)C.[177Lu+3] (mixture of isomers); test system = mouse, HT-29 xenograft; setting = 24 h post injection, biodistribution; scale = reference: tumour over kidney uptake; measurement = tumour-to-kidney ratio; value = 1
Structure (SMILES) = O=C(c1ccc([C@H]2[C@@H](F)[C@@H](F)C[C@@H](F)[C@H]2F)cc1)N1CCCC1; assay = hepatocyte stability; test system = cryopreserved human hepatocytes; setting = 1 µM; measurement = hepatic clearance; value = 14 mL/min/kg
Structure (SMILES) = CC[C@H](C)[C@@H]1NC(=O)[C@H](Cc2ccc(O)cc2)NC(=O)CCCSC[C@@H](C(=O)N(CC(=O)N[C@@H](CC(C)C)C(=O)NCC(N)=O)Cc2ccc(F)cc2)NC(=O)[C@H](CC(N)=O)NC(=O)[C@H](CCC(N)=O)NC1=O; test system = human; setting = intranasal, 300 µg single dose; measurement = AE leading to discontinuation; value = 0%
Structure (SMILES) = CC(C)CC(=O)Nc1ccc(C2CCCCC2)cc1; assay = hepatocyte stability; test system = cryopreserved rat hepatocytes; setting = 1 µM; measurement = hepatic clearance; value = 41 mL/min/kg
Structure (SMILES) = C=C(NC(=O)c1csc(-c2nc3c(cc2O)-c2nc(cs2)C(=O)NC(C(C)O)C(=O)NC(=C(C)OC)c2nc(cs2)C(=O)NC2c4nc(cs4)C(=O)NC(COC(=O)c4c5c6c(cccc6n4O)COC(=O)C(OC4CC(C)(O)C(N(C)C)C(C)O4)C2OC5)c2nc-3cs2)n1)C(N)=O (stereo not drawn); test system = ICR mice, Streptococcus pneumoniae ATCC 49169 infected, immunocompromised, blood; setting = intravenous, 4 mg/kg twice daily; measurement = AUC(0-t); value = 0.156 µM·h
Structure (SMILES) = O=C(CN1CN(c2ccccc2)C2(CCN(C(=O)c3cc4cn[nH]c4cn3)CC2)C1=O)NCC(F)(F)F; test system = human liver microsomes; measurement = CLint; value = 30 µL/min/mg protein
Structure (SMILES) = O=C(NCc1cccc(Cl)c1)c1ccc([C@H]2[C@@H](F)[C@@H](F)C[C@@H](F)[C@H]2F)cc1; assay = liver microsome stability; test system = cynomolgus liver microsomes; setting = 1 µM; measurement = hepatic clearance; value = 7.4 mL/min/kg
Structure (SMILES) = COc1cccc(OC)c1-c1cc(C(=O)NC2(C(=O)O)C3CC4CC(C3)CC2C4)nn1-c1ccc(C(=O)N(C)CCCN(C)C(=O)[C@H](CCCCNC(=O)[C@H](CC(C)C)NC(=O)C2OC2C(=O)O)NC(=O)CN2CCN(CC(=O)[O-])CCN(CC(=O)[O-])CCN(CC(=O)[O-])CC2)cc1C(C)C.[177Lu+3] (mixture of isomers); test system = mouse, HT-29 xenograft; setting = 72 h post injection, biodistribution; scale = reference: tumour over blood uptake; measurement = tumour-to-blood ratio; value = 50.1
Structure (SMILES) = F[C@@H]1[C@H](c2ccc(-c3cnc(N4CCOCC4)nc3)cc2)[C@H](F)[C@H](F)C[C@@H]1F; assay = liver microsome stability; test system = human liver microsomes; setting = 1 µM, without NADPH; measurement = hepatic clearance; value = 3.9 mL/min/kg
Structure (SMILES) = CCCC[C@H](NC(=O)CNC(=O)CNC(=O)[C@H](CCCCNC(=O)C(C)c1ccc(CC(C)C)cc1)NC(=O)CN1CCN(CC(=O)O)CCN(CC(=O)O)CCN(CC(=O)O)CC1)C(=O)N[C@H]1CC(=O)NCCCC[C@@H](C(N)=O)NC(=O)[C@H](Cc2c[nH]c3ccccc23)NC(=O)[C@H](CCCNC(=N)N)NC(=O)[C@@H](Cc2ccccc2)NC(=O)[C@H](Cc2c[nH]cn2)NC1=O (stereo partly drawn) [lutetium-177 labelled]; test system = C57 mouse, urine; setting = 2 h; measurement = urinary excretion; value = 70.2 ± 4.55%
Structure (SMILES) = Cc1nn(-c2nc3c(F)cc(F)cc3s2)c(O)c1C(c1ccc(C(F)(F)F)cc1)c1c(C)nn(-c2nc3c(F)cc(F)cc3s2)c1O; test system = ICR mouse, plasma; setting = intraperitoneal, 10 mg/kg; measurement = Tlast; value = 24 h
Structure (SMILES) = O=C(Nc1cnccc1-c1ccc([18F])cc1)c1ccnc(NC(=O)C2CC2)c1; assay = ex vivo gamma counting; test system = GSK-3β transgenic mice, early-stage, caudate nucleus; setting = intravenous, 120 min, with: tariquidar 15 mg/kg iv; measurement = mean SUV; value = 0.24
Structure (SMILES) = O=C(c1ccc([C@H]2[C@@H](F)[C@@H](F)C[C@@H](F)[C@H]2F)cc1)N1CCC(F)CC1; assay = liver microsome stability; test system = mouse liver microsomes; setting = 1 µM; measurement = hepatic clearance; value = 74 mL/min/kg
Structure (SMILES) = CC(C)(O)Cn1nc(-c2ccccc2)c2c(Cl)c(-c3ccccc3)nnc21; test system = mouse juvenile P20, plasma; setting = intraperitoneal, 100 mg/kg; measurement = AUC; value = 19.8 µM·h
Structure (SMILES) = O=C(Nc1ccc([C@H]2[C@@H](F)[C@@H](F)C[C@@H](F)[C@H]2F)cc1)C1CC1; assay = liver microsome stability; test system = human liver microsomes; setting = 1 µM, without NADPH; measurement = hepatic clearance; value = 3.9 mL/min/kg
Structure (SMILES) = C#Cc1c(F)ccc2cc(O)cc(-c3ncc4c(N5CC6CCC(C5)N6C(=O)OC(C)OC(=O)c5ccc6ccccc6c5)nc(OC[C@@]56CCCN5C[C@H](F)C6)nc4c3F)c12 (stereo partly drawn); assay = refers to: prodrug; test system = mouse whole blood; setting = 1 µM; measurement = t1/2; value = 11.9 min

Excerpt of the above:
Structure (SMILES) = Cc1nn(-c2nc3c(F)cc(F)cc3s2)c(O)c1C(c1ccc(C(F)(F)F)cc1)c1c(C)nn(-c2nc3c(F)cc(F)cc3s2)c1O; test system = ICR mouse, plasma; setting = intraperitoneal, 10 mg/kg; measurement = Tlast; value = 24 h
